Assay results gathered from unrelated publications.
Numbers after ± are the reported error.

CCCC[C@H](NC(=O)CNC(=O)CNC(=O)CN1CCN(CC(=O)O)CCN(CC(=O)O)CCN(CC(=O)O)CC1)C(=O)N[C@H]1CC(=O)NCCCC[C@@H](C(N)=O)NC(=O)[C@H](Cc2c[nH]c3ccccc23)NC(=O)[C@H](CCCNC(=N)N)NC(=O)[C@@H](Cc2ccccc2)NC(=O)[C@H](Cc2c[nH]cn2)NC1=O [gallium-67 labelled]  tissue uptake (C57 mice, female, B16/F1 melanoma, intestines; intravenous, 0.037 MBq, 0.5 h): 1.6 ± 0.3 %ID
CN1C(=O)[C@@H](Cc2ccc(O)c(I)c2)NC(=O)CNC(=O)[C@H](Cc2ccc3ccccc3c2)NC(=O)[C@H](CCCNC(=N)N)NC(=O)[C@H]1CCCNC(=O)c1ccc(CNC(=O)CN2CCN(CC(=O)O)CCN(CC(=O)O)CCN(CC(=O)O)CC2)cc1 [lutetium-177 labelled]  tissue uptake (refers to: 177Lu radioactivity; female CB-17 SCID mice, Daudi xenograft, liver; intravenous, 0.16 nmol per mouse, 48 h): 8.25 ± 2.23 %ID/g
O=C([O-])CN1CCN(CC(=O)[O-])CCN(CC(=O)NCCc2ccc3c(c2)C2C=CCC2C(c2cc4c(cc2Br)OCO4)N3)CCN(CC(=O)[O-])CC1.[111In+3] (centres unmarked)  tissue uptake (mice with Hec50 tumour xenograft, mammary gland; 0.5 h): 1.16 ± 0.32 %ID/g
O=C(O)C1CN(Cc2ccc(-c3noc(-c4ccc(OCC[18F])c(C(F)(F)F)c4)n3)cc2)C1  tissue uptake (male Sprague-Dawley rat, lung; intravenous, 60 min): 0.341 ± 0.024 %ID/g
CC(C)[C@H](NC(=O)[C@@H]1CCCN1C(=O)[C@H](CCCNC(=N)N)NC(=O)[C@H](CS)NC(=O)[C@H](Cc1c[nH]c2ccccc12)NC(=O)[C@H](CCCNC(=N)N)NC(=O)[C@@H](Cc1ccccc1)NC(=O)[C@H](Cc1c[nH]cn1)NC(=O)[C@H](CCC(=O)O)NC(=O)[C@H](CS)NC(=O)[C@H](CS)NC(=O)[C@@H]1CC(=O)N[C@@H](CCCNC(=N)N)C(=O)NCC(=O)N[C@@H](CC(=O)O)C(=O)N[C@H](Cc2ccc(O)cc2)C(=O)N1)C(N)=O [technetium-99m labelled]  tissue uptake (C57 mouse, female, B16/F1 melanoma, bone; intravenous, 0.037 MBq, 2 h): 0.92 ± 0.35 %ID/g
CCCC[C@H](NC(=O)CNC(=O)CNC(=O)CN1CCN(CC(=O)O)CCN(CC(=O)O)CCN(CC(=O)O)CC1)C(=O)N[C@H]1CC(=O)NCCCC[C@@H](C(N)=O)NC(=O)[C@H](Cc2c[nH]c3ccccc23)NC(=O)[C@H](CCCNC(=N)N)NC(=O)[C@@H](Cc2ccccc2)NC(=O)[C@H](Cc2c[nH]cn2)NC1=O [copper-64 labelled]  tissue uptake (female C57 mouse, B16/F1 melanoma, heart; intravenous, 0.037 MBq, 24 h): 2.23 ± 0.1 %ID/g
CCCC[C@@H]1NC(=O)[C@@H](NC(=O)[C@H](CCC(=O)O)NC(=O)CNC(=O)CN2CCN(CC(=O)O)CCN(CC(=O)O)CCN(CC(=O)O)CC2)CCCCNC(=O)C[C@@H](C(N)=O)NC(=O)[C@H](C(C)C)NC(=O)[C@@H]2CCCN2C(=O)[C@H](CCCNC(=N)N)NC(=O)CNC(=O)[C@H](Cc2c[nH]c3ccccc23)NC(=O)[C@H](CCCNC(=N)N)NC(=O)[C@@H](Cc2ccccc2)NC(=O)[C@H](Cc2c[nH]cn2)NC(=O)[C@H](CCC(=O)O)NC1=O [gallium-67 labelled]  tissue uptake (C57 mice with B16/F1 melanoma, muscle; intravenous, 0.037 MBq, 0.5 h): 0.46 ± 0.28 %ID/g
CCN(CC)c1ccc2c(-c3ccccc3C(=O)OCCOCCOCC[18F])c3ccc(=[N+](CC)CC)cc-3oc2c1  tissue uptake (rat, spleen; 60 min): 0.83 ± 0.1 %ID/g
CCCC[C@H](NC(=O)CNC(=O)CNC(=O)CN1CCN(CC(=O)O)CCN(CC(=O)O)CC1)C(=O)N[C@H]1CC(=O)NCCCC[C@@H](C(N)=O)NC(=O)[C@H](Cc2c[nH]c3ccccc23)NC(=O)[C@H](CCCNC(=N)N)NC(=O)[C@@H](Cc2ccccc2)NC(=O)[C@H](Cc2c[nH]cn2)NC1=O [copper-64 labelled]  tissue uptake (C57 mouse B16/F1 melanoma, skin; 0.5 h): 2.23 ± 0.21 %ID/g
C[C@H](CN(C)Cc1ccccc1)NC(=O)c1ccc(-c2noc(C(F)(F)[18F])n2)cc1  tissue uptake (PET imaging; female Sprague-Dawley rats, heart; intravenous, 10 min): 0.51 ± 0.27 SUV
CC(C)[C@H](NC(=O)[C@@H]1CCCN1C(=O)[C@H](CCCNC(=N)N)NC(=O)[C@H](CS)NC(=O)[C@H](Cc1c[nH]c2ccccc12)NC(=O)[C@H](CCCNC(=N)N)NC(=O)[C@@H](Cc1ccccc1)NC(=O)[C@H](Cc1c[nH]cn1)NC(=O)[C@H](CCC(=O)O)NC(=O)[C@H](CS)NC(=O)[C@H](CS)NC(=O)CNC(=O)[C@@H]1CC(=O)N[C@@H](CCCNC(=N)N)C(=O)NCC(=O)N[C@@H](CC(=O)O)C(=O)N[C@H](Cc2ccc(O)cc2)C(=O)N1)C(N)=O [technetium-99m labelled]  tissue uptake (C57 mouse, female, B16/F1 melanoma, tumor; intravenous, 0.037 MBq, 4 h): 7.99 ± 1.05 %ID/g

Excerpt of the above:
CN1C(=O)[C@@H](Cc2ccc(O)c(I)c2)NC(=O)CNC(=O)[C@H](Cc2ccc3ccccc3c2)NC(=O)[C@H](CCCNC(=N)N)NC(=O)[C@H]1CCCNC(=O)c1ccc(CNC(=O)CN2CCN(CC(=O)O)CCN(CC(=O)O)CCN(CC(=O)O)CC2)cc1 [lutetium-177 labelled]  tissue uptake (refers to: 177Lu radioactivity; female CB-17 SCID mice, Daudi xenograft, liver; intravenous, 0.16 nmol per mouse, 48 h): 8.25 ± 2.23 %ID/g
C[C@H](CN(C)Cc1ccccc1)NC(=O)c1ccc(-c2noc(C(F)(F)[18F])n2)cc1  tissue uptake (PET imaging; female Sprague-Dawley rats, heart; intravenous, 10 min): 0.51 ± 0.27 SUV
